Assay results gathered from unrelated publications.
A part holds a random share of what one study measured. Values joined by “and” are separate records of one study, mostly repeats; a detail may differ.
Chain of UniProt P08069 (whole entry, looked up): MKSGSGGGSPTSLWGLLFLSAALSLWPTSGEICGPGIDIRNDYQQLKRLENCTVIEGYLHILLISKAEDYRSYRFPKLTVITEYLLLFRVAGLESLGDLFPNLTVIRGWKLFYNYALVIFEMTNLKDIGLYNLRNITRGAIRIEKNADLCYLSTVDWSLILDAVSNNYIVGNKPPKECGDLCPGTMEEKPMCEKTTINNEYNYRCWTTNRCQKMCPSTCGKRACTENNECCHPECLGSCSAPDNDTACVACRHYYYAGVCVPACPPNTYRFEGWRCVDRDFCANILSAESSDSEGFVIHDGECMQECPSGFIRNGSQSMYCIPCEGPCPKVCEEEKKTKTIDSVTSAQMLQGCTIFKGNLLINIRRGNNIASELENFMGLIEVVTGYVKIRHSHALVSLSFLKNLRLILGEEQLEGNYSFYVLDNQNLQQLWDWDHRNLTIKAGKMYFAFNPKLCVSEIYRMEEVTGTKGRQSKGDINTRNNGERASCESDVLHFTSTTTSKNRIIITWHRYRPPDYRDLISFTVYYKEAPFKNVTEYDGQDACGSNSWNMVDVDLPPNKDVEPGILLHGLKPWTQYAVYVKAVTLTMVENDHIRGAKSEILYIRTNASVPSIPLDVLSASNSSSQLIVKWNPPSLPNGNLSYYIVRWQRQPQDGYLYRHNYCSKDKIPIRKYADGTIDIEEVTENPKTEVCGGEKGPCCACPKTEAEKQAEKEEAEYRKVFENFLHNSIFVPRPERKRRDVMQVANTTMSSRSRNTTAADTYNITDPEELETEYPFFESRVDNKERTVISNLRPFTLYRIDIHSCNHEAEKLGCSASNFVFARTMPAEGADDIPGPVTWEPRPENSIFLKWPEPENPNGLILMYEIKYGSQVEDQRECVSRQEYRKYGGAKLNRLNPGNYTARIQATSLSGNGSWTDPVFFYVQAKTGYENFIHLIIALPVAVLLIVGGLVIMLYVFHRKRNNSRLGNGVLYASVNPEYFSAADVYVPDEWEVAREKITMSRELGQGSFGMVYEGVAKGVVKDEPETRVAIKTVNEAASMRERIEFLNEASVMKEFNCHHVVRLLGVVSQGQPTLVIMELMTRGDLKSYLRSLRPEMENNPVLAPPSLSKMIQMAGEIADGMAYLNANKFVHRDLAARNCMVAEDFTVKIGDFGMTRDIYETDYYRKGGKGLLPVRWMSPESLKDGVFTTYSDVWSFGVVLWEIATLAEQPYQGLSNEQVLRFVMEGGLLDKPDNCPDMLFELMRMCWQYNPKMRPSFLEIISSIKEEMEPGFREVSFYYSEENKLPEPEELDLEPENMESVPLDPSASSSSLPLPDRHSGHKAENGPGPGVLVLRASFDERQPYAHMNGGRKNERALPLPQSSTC
Chain of UniProt Q9HBY8 (whole entry, looked up): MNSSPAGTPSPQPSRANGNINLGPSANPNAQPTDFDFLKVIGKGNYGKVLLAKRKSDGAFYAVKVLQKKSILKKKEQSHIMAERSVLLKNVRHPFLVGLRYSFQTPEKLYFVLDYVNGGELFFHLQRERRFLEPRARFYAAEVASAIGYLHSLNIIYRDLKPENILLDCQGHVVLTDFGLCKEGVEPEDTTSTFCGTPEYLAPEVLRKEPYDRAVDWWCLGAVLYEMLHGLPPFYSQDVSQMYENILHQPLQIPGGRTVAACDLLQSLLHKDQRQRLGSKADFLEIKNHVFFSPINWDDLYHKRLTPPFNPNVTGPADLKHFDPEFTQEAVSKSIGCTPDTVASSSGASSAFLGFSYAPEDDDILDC
Chain of UniProt Q13237 (whole entry, looked up): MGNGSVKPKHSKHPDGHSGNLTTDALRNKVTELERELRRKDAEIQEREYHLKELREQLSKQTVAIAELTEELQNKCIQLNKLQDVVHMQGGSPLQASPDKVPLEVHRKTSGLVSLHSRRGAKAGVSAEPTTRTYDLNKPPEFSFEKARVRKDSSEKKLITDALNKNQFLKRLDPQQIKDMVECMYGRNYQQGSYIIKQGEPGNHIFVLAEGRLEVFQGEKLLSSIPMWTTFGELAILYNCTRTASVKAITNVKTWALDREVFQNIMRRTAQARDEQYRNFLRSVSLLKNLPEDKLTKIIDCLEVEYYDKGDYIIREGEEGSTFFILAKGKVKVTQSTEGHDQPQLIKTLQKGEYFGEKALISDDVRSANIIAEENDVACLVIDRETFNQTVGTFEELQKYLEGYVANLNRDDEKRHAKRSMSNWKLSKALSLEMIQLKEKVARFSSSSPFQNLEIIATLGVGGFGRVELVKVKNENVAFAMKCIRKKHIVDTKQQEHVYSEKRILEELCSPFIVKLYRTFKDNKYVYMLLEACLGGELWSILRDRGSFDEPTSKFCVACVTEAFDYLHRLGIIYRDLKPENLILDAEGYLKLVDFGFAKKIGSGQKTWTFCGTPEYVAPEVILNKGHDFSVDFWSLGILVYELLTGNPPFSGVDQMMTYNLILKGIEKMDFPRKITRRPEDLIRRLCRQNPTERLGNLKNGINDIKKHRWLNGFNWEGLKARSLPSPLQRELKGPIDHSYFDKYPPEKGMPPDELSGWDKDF
Chain of UniProt Q9NQU5 (whole entry, looked up): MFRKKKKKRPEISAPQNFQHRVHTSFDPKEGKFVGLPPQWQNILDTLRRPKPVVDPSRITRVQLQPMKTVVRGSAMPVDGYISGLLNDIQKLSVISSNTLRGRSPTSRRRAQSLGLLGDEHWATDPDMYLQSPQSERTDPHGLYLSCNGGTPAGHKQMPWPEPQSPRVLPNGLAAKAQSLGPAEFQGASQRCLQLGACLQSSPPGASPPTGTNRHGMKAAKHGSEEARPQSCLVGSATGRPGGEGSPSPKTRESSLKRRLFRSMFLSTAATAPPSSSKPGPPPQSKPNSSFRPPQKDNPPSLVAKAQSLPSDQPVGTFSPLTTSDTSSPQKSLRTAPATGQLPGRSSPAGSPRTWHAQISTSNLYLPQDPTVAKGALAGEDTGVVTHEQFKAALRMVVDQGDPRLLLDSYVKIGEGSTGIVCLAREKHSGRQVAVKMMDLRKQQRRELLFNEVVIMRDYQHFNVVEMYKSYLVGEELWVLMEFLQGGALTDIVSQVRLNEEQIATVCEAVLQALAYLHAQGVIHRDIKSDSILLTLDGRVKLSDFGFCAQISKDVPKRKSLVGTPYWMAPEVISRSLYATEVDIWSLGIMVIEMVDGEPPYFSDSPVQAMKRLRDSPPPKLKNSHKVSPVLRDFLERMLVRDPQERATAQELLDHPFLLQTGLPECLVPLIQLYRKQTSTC
Chain of UniProt P17948 (whole entry, looked up): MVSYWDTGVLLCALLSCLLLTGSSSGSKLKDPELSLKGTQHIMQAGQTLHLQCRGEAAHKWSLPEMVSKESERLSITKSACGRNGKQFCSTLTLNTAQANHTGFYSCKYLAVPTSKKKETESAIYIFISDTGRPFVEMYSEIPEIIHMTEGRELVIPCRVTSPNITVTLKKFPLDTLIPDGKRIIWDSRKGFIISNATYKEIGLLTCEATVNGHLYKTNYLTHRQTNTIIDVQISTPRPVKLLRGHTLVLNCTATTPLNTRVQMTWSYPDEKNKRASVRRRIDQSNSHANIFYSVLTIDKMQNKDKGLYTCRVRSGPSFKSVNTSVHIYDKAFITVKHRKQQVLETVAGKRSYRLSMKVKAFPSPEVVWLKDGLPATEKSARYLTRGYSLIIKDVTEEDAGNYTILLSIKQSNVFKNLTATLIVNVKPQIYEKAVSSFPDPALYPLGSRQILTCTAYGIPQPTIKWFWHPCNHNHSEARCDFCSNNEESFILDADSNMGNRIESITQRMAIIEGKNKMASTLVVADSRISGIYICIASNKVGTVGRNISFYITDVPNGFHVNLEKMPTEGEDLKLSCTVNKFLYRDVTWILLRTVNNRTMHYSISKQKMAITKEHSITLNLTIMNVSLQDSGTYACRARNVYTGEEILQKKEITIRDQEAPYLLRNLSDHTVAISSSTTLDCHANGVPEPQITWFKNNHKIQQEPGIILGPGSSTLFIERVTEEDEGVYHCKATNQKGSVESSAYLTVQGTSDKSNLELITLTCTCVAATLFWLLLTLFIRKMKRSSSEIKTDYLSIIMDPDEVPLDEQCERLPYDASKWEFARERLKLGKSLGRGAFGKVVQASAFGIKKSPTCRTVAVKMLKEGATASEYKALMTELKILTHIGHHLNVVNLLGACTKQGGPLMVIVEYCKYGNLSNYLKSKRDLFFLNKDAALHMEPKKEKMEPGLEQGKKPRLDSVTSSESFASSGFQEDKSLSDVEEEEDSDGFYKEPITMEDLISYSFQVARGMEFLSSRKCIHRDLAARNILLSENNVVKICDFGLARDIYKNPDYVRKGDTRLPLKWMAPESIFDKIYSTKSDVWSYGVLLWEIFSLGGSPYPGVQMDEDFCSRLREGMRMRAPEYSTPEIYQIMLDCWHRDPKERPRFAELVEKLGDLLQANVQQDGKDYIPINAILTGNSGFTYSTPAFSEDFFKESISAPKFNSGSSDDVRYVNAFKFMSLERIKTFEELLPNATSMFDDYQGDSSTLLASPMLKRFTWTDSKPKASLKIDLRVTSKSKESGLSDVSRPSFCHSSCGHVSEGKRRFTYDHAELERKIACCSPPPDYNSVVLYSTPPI
Chain of UniProt O95747 (whole entry, looked up): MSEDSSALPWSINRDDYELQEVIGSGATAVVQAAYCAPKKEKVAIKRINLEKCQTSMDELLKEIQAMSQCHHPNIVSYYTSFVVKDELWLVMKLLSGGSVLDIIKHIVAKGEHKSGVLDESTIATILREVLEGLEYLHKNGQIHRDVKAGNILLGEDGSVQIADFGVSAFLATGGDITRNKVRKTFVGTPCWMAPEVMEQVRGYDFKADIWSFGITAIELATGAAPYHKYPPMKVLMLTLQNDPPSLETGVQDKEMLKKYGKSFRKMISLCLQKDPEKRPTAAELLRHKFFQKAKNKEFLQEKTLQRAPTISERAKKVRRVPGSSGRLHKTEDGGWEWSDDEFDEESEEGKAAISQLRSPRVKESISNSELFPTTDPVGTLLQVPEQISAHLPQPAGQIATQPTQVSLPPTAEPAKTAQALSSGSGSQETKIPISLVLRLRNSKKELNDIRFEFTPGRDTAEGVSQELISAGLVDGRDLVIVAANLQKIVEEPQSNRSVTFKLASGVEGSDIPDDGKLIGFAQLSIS

Series 1
Compound: CCCOc1ccc([C@@H]2[C@@H](C(=O)O)[C@H](c3ccc4c(c3)OCO4)CN2CC(=O)Nc2c(CC)cccc2CC)cc1
Observed: cell-free assay
Technique: competition with immobilised ligand
Concentration: 1 µM
Quantity: remaining binding
target = PAK5 (Homo sapiens, UniProt Q9P286); result = 88%
target = NEK10 (Homo sapiens, UniProt Q6ZWH5); result = 96%
target = DSTYK (Homo sapiens, UniProt Q6XUX3); result = 82%
target = Non-receptor tyrosine-protein kinase TYK2, JH2 (TYK2, Homo sapiens, UniProt P29597); result = 81%
target = PRKG2 (Homo sapiens, UniProt Q13237); result = 83%
target = PTK2 (Homo sapiens, UniProt Q05397); result = 88%
target = BMP2K (Homo sapiens, UniProt Q9NSY1); result = 92%
target = RIOK2 (Homo sapiens, UniProt Q9BVS4); result = 98%
target = FLT3 (Homo sapiens, UniProt P36888, K663Q); result = 100%
target = MAP3K12 (Homo sapiens, UniProt Q12852); result = 100%
target = Tyrosine-protein kinase JAK3, JH1 (JAK3, Homo sapiens, UniProt P52333); result = 73%
target = OXSR1 (Homo sapiens, UniProt O95747); result = 79%
target = MAP4K1 (Homo sapiens, UniProt Q92918); result = 92%
target = PIK3CA (Homo sapiens, UniProt P42336, H1047Y); result = 100%

Series 2
SMILES: CC(C)n1cnc(-c2ccc(F)cc2)c1-c1ncc(C(=O)Nc2ccc(N3CCN(C)CC3)cc2)[nH]1
Technique: phase 2a clinical trial
Species: patients with idiopathic pulmonary fibrosis
Quantity: patients with treatment-emergent adverse events
measured = carbon dioxide decreased; dose = 30 mg once daily; setting = Grade 2; result = 0%
measured = C-reactive protein increased; dose = dose not given; setting = Grade 2, all drug arms total; result = 0%
measured = electrocardiogram QT prolonged; dose = 30 mg once daily; setting = Grade 4; result = 0%
measured = electrocardiogram T wave abnormal; dose = 30 mg once daily; setting = Grade 5; result = 0%
measured = protein urine present; dose = 60 mg once daily; setting = Grade 2; result = 0%
measured = benign prostatic hyperplasia; dose = 60 mg once daily; setting = Grade 3, maximum intensity; result = 0%
measured = C-reactive protein increased; dose = dose not given; setting = Grade 4, all drug arms total; result = 0%
measured = electrocardiogram QT prolonged; dose = 60 mg once daily; setting = Grade 3; result = 0%
measured = electrocardiogram QT prolonged; dose = 30 mg once daily; setting = Grade 3; result = 0%

Series 3
Cell line: mouse MPNST tumor cells
Technique: high-content nuclear imaging
Measured: cell number
Concentration: 10 µM
Time: 12 h
Setting: mean of 2 replicates
Reference: plate mean
Reading: higher = more cells
Quantity: nuclei count
Structure (SMILES) = CC(C)NCC(O)c1ccc2ccccc2c1 (centres unmarked); result = 2.92 z-score
Structure (SMILES) = C[C@]12C=CC(=O)C=C1CC[C@@H]1[C@@H]2[C@@H](O)C[C@@]2(C)[C@H]1CC[C@]2(O)C(=O)CO; result = 4.85 z-score and 3.55 z-score
Structure (SMILES) = COc1ccc(-c2nc(-c3ccc(-c4cccc(Cl)c4)o3)[nH]c2-c2ccc(OC)cc2)cc1; result = 6.26 z-score
Structure (SMILES) = Oc1cc2c(c(Cl)c1O)CCNCC2c1ccccc1 (centres unmarked); result = 0.937 z-score
Structure (SMILES) = O=C(Nc1ccc(-c2ccncc2)cc1)N[C@H](CO)c1ccccc1; result = -1.02 z-score
Structure (SMILES) = COc1cc(-c2ccc(=O)[nH]n2)ccc1OC(F)F; result = 1.74 z-score and 2.19 z-score
Structure (SMILES) = COC1CCC(C(=O)c2ccc3nc4c(cc3c2)CCCO4)CC1 (centres unmarked); result = 0.338 z-score

Series 4
Structure (SMILES): Oc1cccc(-c2nc(N3CCOCC3)c3oc4ncccc4c3n2)c1
Observed: enzyme activity
Action: inhibitor
Concentration: 0.5 µM
Reference: control
Quantity: remaining activity
target = Cyclin-dependent kinase 2, with cyclin E (CDK2, Homo sapiens, UniProt P24941); result = 85.5%
target = PRKCZ (Homo sapiens, UniProt Q05513); result = 99.1%
target = SIK2 (Homo sapiens, UniProt Q9H0K1); result = 98.9%
target = IGF1R (Homo sapiens, UniProt P08069); result = 97.1%
target = FLT1 (Homo sapiens, UniProt P17948); result = 83.6%
target = CSNK1D (Homo sapiens, UniProt P48730); result = 91.3%
target = PAK1 (Homo sapiens, UniProt Q13153); result = 97.6%
target = MAP3K20 (Homo sapiens, UniProt Q9NYL2); result = 96.2%
target = SGK2 (Homo sapiens, UniProt Q9HBY8); result = 96.7%
target = JAK1 (Homo sapiens, UniProt P23458); result = 104%
target = CSNK1E (Homo sapiens, UniProt P49674); result = 87.1%
target = RPS6KA3 (Homo sapiens, UniProt P51812); result = 101%
target = SRPK1 (Homo sapiens, UniProt Q96SB4); result = 105%
target = CLK2 (Homo sapiens, UniProt P49760); result = 88%
target = PRKCQ (Homo sapiens, UniProt Q04759); result = 105%
target = PAK6 (Homo sapiens, UniProt Q9NQU5); result = 105%
target = CAMKK1 (Homo sapiens, UniProt Q8N5S9); result = 84.6%

A few entries again (series 4):
target = SRPK1 (Homo sapiens, UniProt Q96SB4); result = 105%
target = JAK1 (Homo sapiens, UniProt P23458); result = 104%
target = PAK6 (Homo sapiens, UniProt Q9NQU5); result = 105%
